Values quoted from earlier work as cited in several papers.
Protocols differ between the studies behind these lines. Values after ≈ are worked out from the molar mass of the structure shown.
Chain of UniProt Q5S007 (whole entry, looked up): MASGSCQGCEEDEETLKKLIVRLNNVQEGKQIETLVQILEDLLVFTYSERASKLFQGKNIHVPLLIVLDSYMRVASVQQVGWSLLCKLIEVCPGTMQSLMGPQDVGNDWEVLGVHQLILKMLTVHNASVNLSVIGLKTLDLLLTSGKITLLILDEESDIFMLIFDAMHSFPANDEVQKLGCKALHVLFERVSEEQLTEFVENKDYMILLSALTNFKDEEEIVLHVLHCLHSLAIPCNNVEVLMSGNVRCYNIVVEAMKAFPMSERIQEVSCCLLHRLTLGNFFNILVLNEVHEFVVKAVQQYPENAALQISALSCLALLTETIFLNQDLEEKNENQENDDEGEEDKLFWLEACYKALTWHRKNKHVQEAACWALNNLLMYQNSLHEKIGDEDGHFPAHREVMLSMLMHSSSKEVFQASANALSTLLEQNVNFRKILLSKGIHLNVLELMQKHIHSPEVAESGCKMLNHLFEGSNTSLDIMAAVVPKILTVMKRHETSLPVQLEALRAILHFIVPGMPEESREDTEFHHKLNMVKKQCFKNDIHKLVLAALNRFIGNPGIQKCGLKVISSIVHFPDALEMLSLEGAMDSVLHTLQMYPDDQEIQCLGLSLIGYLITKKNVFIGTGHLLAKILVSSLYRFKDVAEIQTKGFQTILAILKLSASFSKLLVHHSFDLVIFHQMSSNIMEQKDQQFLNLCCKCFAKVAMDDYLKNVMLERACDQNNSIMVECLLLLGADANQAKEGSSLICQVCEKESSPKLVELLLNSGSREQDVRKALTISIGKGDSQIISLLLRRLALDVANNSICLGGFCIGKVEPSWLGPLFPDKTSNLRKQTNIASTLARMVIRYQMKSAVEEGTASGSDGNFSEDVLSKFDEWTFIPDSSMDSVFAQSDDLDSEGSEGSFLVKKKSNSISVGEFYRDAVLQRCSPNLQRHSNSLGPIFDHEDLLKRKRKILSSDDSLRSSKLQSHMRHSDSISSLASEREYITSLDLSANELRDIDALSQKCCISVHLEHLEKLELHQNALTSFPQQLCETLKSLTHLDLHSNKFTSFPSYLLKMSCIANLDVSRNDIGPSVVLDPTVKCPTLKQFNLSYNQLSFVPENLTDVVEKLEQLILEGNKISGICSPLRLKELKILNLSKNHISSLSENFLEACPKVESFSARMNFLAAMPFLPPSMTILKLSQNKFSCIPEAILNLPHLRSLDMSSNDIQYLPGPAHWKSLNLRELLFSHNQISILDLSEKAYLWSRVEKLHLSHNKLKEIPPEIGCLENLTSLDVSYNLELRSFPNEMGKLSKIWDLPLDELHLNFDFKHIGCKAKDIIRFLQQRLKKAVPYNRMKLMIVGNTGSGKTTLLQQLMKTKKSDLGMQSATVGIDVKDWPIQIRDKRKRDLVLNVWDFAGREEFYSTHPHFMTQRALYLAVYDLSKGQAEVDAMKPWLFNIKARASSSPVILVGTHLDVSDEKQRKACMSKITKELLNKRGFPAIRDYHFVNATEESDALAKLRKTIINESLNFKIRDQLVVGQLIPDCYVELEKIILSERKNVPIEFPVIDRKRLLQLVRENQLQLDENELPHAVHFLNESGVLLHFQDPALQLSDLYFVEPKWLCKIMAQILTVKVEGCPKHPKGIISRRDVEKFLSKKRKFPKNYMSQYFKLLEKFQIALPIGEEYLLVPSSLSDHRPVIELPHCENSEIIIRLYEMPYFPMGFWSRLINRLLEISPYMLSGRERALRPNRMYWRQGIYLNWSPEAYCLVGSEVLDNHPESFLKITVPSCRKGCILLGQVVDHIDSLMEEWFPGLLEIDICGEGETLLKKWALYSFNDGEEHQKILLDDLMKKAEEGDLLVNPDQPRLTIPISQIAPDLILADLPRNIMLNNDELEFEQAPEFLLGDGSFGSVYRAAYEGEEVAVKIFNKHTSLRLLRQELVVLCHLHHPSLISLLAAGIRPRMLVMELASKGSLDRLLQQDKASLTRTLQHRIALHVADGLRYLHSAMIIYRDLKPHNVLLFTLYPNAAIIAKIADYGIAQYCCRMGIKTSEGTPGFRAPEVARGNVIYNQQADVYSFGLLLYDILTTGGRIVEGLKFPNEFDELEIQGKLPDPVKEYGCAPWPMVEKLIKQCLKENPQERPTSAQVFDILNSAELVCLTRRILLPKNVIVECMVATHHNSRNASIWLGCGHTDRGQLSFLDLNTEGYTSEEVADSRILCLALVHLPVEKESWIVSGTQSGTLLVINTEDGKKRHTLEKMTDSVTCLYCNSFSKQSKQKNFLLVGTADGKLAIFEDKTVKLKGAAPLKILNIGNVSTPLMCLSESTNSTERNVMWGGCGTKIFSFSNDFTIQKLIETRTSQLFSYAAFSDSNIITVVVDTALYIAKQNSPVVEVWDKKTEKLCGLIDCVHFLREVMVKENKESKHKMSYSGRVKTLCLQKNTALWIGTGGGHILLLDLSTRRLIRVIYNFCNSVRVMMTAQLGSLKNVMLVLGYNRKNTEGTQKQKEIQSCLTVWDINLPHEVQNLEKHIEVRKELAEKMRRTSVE

`CCC[C@H](NC(=O)[C@@H]1[C@H]2CCC[C@H]2CN1C(=O)[C@@H](NC(=O)[C@@H](NC(=O)c1cnccn1)C1CCCCC1)C(C)(C)C)C(=O)C(=O)NC1CC1` has a solubility of 120 µg/mL (≈ 177 µM) (FaSSIF; literature value).
The solubility of `CO[C@H]1/C=C/O[C@@]2(C)Oc3c(C)c(O)c4c(O)c(c(/C=N/N5CCN(C)CC5)c(O)c4c3C2=O)NC(=O)/C(C)=C\C=C\[C@H](C)[C@H](O)[C@@H](C)[C@@H](O)[C@@H](C)[C@H](OC(C)=O)[C@@H]1C` is reported as 2800 µg/mL (≈ 3400 µM) (pH 7.5).
The solubility of `CCCN(CCC)S(=O)(=O)c1ccc(C(=O)O)cc1` is reported as less than 1000 µg/mL (water).
With `Nc1ccn([C@@H]2O[C@H](CO)[C@@H](O)C2(F)F)c(=O)n1` the solubility was 824 µg/mL (≈ 3130 µM) (water).
For `C=CC(=O)N1CCC[C@@H](n2nc(-c3ccc(Oc4ccccc4)cc3)c3c(N)ncnc32)C1`, the solubility was 2 µg/mL (≈ 4.54 µM).
For `CC1(C)CCC(CN2CCN(c3ccc(C(=O)NS(=O)(=O)c4ccc(NCC5CCOCC5)c([N+](=O)[O-])c4)c(Oc4cnc5[nH]ccc5c4)c3)CC2)=C(c2ccc(Cl)cc2)C1`, the solubility was 0.0337 µg/mL (≈ 0.0388 µM) (FaSSIF; literature value).
With `CC(C)(C)c1cc(C(C)(C)C)c(NC(=O)c2c[nH]c3ccccc3c2=O)cc1O` the solubility was less than 1000 µg/mL (water).
`O=C(NC[C@H]1CN(c2ccc(N3CCOCC3=O)cc2)C(=O)O1)c1ccc(Cl)s1` has a solubility of 9.9 µg/mL (≈ 22.7 µM) (FaSSIF; literature value).
`Nc1cc(C(F)(F)F)c(-c2nc(N3CCOCC3)nc(N3CCOCC3)n2)cn1` has a remaining activity of 91% (Leucine-rich repeat serine/threonine-protein kinase 2 (LRRK2, Homo sapiens, UniProt Q5S007); enzyme activity; 10 µM; reference: untreated).
With `C#Cc1cccc(Nc2ncnc3cc(OCCOC)c(OCCOC)cc23)c1` the solubility was 12.4 µg/mL (≈ 31.5 µM) (FaSSIF; literature value).
`COc1ccc2c(c1)c(CC(=O)O)c(C)n2C(=O)c1ccc(Cl)cc1` gave a solubility of less than 1000 µg/mL (water).
`C[C@@H](Oc1ccc(S(C)(=O)=O)cc1C(=O)N1C[C@@H]2C[C@]2(c2cc(C(F)(F)F)on2)C1)C(F)(F)F` gave a solubility of 42.3 µg/mL (≈ 82.5 µM) (FeSSIF).
`CN(CCOc1ccc(CC2SC(=O)NC2=O)cc1)c1ccccn1` (centres unmarked) gave a solubility of less than 1000 µg/mL (water).
For `CC(O)C(C)n1ncn(-c2ccc(N3CCN(c4ccc(OCC5COC(Cn6cncn6)(c6ccc(Cl)cc6Cl)O5)cc4)CC3)cc2)c1=O` (centres unmarked), the solubility was 1 µg/mL (≈ 1.39 µM) (pH 7).

Repeated from above:
With `CC(C)(C)c1cc(C(C)(C)C)c(NC(=O)c2c[nH]c3ccccc3c2=O)cc1O` the solubility was less than 1000 µg/mL (water).
